Assay results of several laboratories.
Each line is one published result; not all experiments were run side by side. ± marks the error that the study gave.

| Compound | assay | system | conditions | scale | measurement | value |
| --- | --- | --- | --- | --- | --- | --- |
| Cc1ccc(-c2ccc(-c3cc4sccc4o3)cn2)nc1 |  | aqueous HEPES buffer | pH 7.4, together with: quinine bisulfate reference |  | fluorescence quantum yield | 0.54 |
| CC(C)c1cnc(-c2cc(Cl)ccc2F)cc1Nc1ccncc1C(=O)NC(CO)CO | monotherapy, item: myalgia | human patients | oral, dose not given, grade 5, phase I A |  | patients with treatment-related adverse event | 0% |
| NC[C@@H](C(=O)Nc1ccc(-c2cn[nH]c2)cc1)c1ccccc1 | OECD 405 eye irritation | New Zealand White rabbit, eye | topical, 0.1%, 56 h (day 3), scale 0 to 4 | direction not given | cornea score | 0 |
| CN1CCC[C@]1(C)/C=C/S(=O)(=O)NC(=O)Nc1c2c(cc3c1CCC3)CCC2 |  | human, plasma | oral, 250 mg, single dose, healthy volunteers |  | AUC(0-t) | 245 µg·h/mL |
| CC(C)(F)CC(NC(c1ccc(-c2ccc(S(C)(=O)=O)cc2)cc1)C(F)(F)F)C(=O)NCC#N (stereo not shown) | LC-MS UV trace | aqueous buffer | concentration not given, 23 h, pH 7.5, 37 °C, together with: cysteine 10 mM |  | cysteine adduct formation | 91% |
| CCOc1ccc2c(c1)C(C)=CC(C)(C)N2c1cc(OCC)cc2c1NC(C)(C)C=C2C | LC-MS/MS | laying hens, skin and fat | oral in feed, 50 mg/kg feed ethoxyquin, 56 days |  | tissue residue | 42.3 ± 19.2 ng/g |
| CCCC[C@H](NC(=O)CNC(=O)CNC(=O)CN1CCN(CC(=O)O)CCN(CC(=O)O)CCN(CC(=O)O)CC1)C(=O)N[C@H]1CC(=O)NCCCC[C@@H](C(N)=O)NC(=O)[C@H](Cc2c[nH]c3ccccc23)NC(=O)[C@H](CCCNC(=N)N)NC(=O)[C@@H](Cc2ccccc2)NC(=O)[C@H](Cc2c[nH]cn2)NC1=O [gallium-67 labelled] |  | C57 mice, female, B16/F1 melanoma, tumour over blood | intravenous, 0.037 MBq, 4 h |  | tumour to tissue uptake ratio | 47.7 |
| CCCC[C@H](NC(=O)[C@H](CC(C)C)N(C)C(=O)CNC(=O)[C@@H](NC(=O)[C@H](Cc1ccccc1)NC(=O)[C@H](CCCCN)NC(=O)[C@@H](N)CC(=O)O)C(C)C)C(N)=O | potentiometric titration |  | third pKa |  | pKa | 4.73 ± 0.15 |
| CC(=O)N[C@H](C)c1cc(Cl)ccc1Cn1c(=S)[nH]c(=O)c2[nH]ccc21 |  | Sprague-Dawley rat, male, plasma | oral, 125 mg/kg/day | reference: rat over human 15 mg | exposure ratio | 1.6 |
| CCCC[C@@H]1NC(=O)[C@@H](NC(=O)[C@H](CCC(=O)O)NC(=O)CNC(=O)CN2CCN(CC(=O)O)CCN(CC(=O)O)CCN(CC(=O)O)CC2)CCCCNC(=O)C[C@@H](C(N)=O)NC(=O)[C@H](C(C)C)NC(=O)[C@@H]2CCCN2C(=O)[C@H](CCCNC(=N)N)NC(=O)CNC(=O)[C@H](Cc2c[nH]c3ccccc23)NC(=O)[C@H](CCCNC(=N)N)NC(=O)[C@@H](Cc2ccccc2)NC(=O)[C@H](Cc2c[nH]cn2)NC(=O)[C@H](CCC(=O)O)NC1=O [gallium-67 labelled] |  | C57 mice with B16/F1 melanoma | intravenous, 0.037 MBq/mouse, 2 h | reference: tumour over lung | tumour to lung ratio | 646 |
| CC12CC(c3ccc(S(C)(=O)=O)cc3)C3=C4CCC(=O)C=C4CCC3C1CCC2(O)C(F)(F)C(F)(F)F (stereo not shown) |  | human, plasma | intravenous, 15.7 µg, [14C] microdose, geometric mean |  | total clearance | 7.22 L/h |
| c1ccc(CN2CCOCCOCCN(CCCCCCCCN3CCOCCOCCN(CCCCCCCCN4CCOCCOCCN(Cc5ccccc5)CCOCCOCC4)CCOCCOCC3)CCOCCOCC2)cc1 | dynamic light scattering | LB Miller medium | 25 µM |  | aggregate size | 227 nm |
| CC12CC(c3ccc(C(=O)CO)cc3)C3=C4CCC(=O)C=C4CCC3C1CCC2(O)C(F)(F)C(F)(F)F (stereo not shown) |  | rat liver microsomes | 100 % absorption assumed |  | maximal oral bioavailability | 81% |
| [2H]C([2H])([2H])NC(=O)c1ccc(N2C(=S)N(c3ccc(C#N)c(C(F)(F)F)c3)C(=O)C2(C)C)cc1F |  | male human, plasma | oral, 40 mg, single dose, fasted |  | Vd/F | 53.8 L |
| CC(C)CCN(c1nc(C#N)nc(NC2COC2)n1)C(C)c1ccc(F)cc1 (stereo not shown) |  | female CD-1 mice | intraperitoneal, 10 mg/kg, 0.5 h |  | brain concentration | 671 ng/g |
| COCCOCCOCCOCCOCCOCCOCCNC(=O)CCC1(CCC(=O)NCCOCCOCCOCCOCCOCCOCCOC)c2ccccc2-c2ccc(-c3sc(-c4c5c(c(-c6sc(-c7ccc8c(c7)C(CCC(=O)NCCOCCOCCOCCOCCOCCOCCOC)(CCC(=O)NCCOCCOCCOCCOCCOCCOCCOC)c7ccccc7-8)c7c6OCCO7)c6nsnc46)N=S=N5)c4c3OCCO4)cc21 | NIR-II imaging | KM mouse, female | iv, dose not given, 5 to 240 min |  | maximum liver to leg ratio | ~10 |
| O=C(COc1ccc(CO)cc1)N(Cc1cccs1)c1cc[nH]n1 | LC-MS EIC | human liver microsomes, pooled, both sexes | 10 µM, 60 min | reference: reference compound at start | relative peak area | 6.31% |
| OCc1cn(Cc2ccc(-c3noc(-c4ccc(OCC[18F])c(C(F)(F)F)c4)n3)cc2)nn1 |  | Lewis rat, female, blood | intravenous, 0.08333 h |  | tissue uptake | 0.49 ± 0.07 %ID/g |
| COc1cc2c(cc1OC)CN(CCCCn1ccc3cc(OCC[18F])ccc31)C2 |  | ICR mice, male, lung | intravenous, 15 min |  | uptake | 14.1 ± 3.06 %ID/g |
| CC1=C(C2=C(C)C(=O)c3c(cc(O)c(O)c3Cc3ccccc3)C2=O)C(=O)c2cc(O)c(O)c(Cc3ccccc3)c2C1=O (racemic) |  | rat liver microsomes | 4 µM, 1 h, pH 7.4 |  | degraded compound | 19.3 ± 5.4% |
| COc1cc(NC(C)=O)c2c(c1O)-c1c(OC)c(OC)cc3c1C(C2)N(C)CC3 (stereo not shown) |  | rat, plasma | 0.5 µg/mL, time not given, -20 °C to room temperature, three freeze-thaw cycles |  | remaining compound | 104 ± 3.5% |
| COc1ccccc1NC(=O)OC1C(C)C(OC)C=COC2(C)Oc3c(C)c(O)c4c(c3C2=O)C2=NC3(CCN(CC(C)C)CC3)NC2=C(NC(=O)C(C)=CC=CC(C)C(O)C(C)C(O)C1C)C4=O (stereo not shown) |  | CD-1 mouse female, plasma | oral, 10 mg/kg |  | fAUC/MIC ratio | 1 |
| CCCCN1C(=O)c2cccc3c(NCCCCCCCCCCN4CCOCC4)ccc(c23)C1=O |  | aqueous medium | pH 6 |  | average fluorescence lifetime | 4.2 ns |
| CC(O)c1ccc(C2CC3(C)C(CCC3(O)C(F)(F)C(F)(F)F)C3CCC4=CC(=O)CCC4=C23)cc1 (stereo not shown) |  | rat liver microsomes | 100 % absorption assumed |  | maximal oral bioavailability | 57% |
| O=C(CCc1ccc(CNC(C(=O)OC2CCCC2)C2CCCCC2)cn1)NO (stereo not shown) |  | human, plasma | oral, 5 mg, single dose, patients |  | Cmax | 16.5 ng/mL |
| CC(=O)N[C@H](CSSC[C@H](N)C(=O)O)C(=O)N[C@H](C)C(=O)N[C@H](CCCNC(=N)N)C(=O)N[C@H](CCCNC(=N)N)C(=O)N[C@H](CCCNC(=N)N)C(=O)N[C@H](C)C(=O)N[C@H](CCCNC(=N)N)C(N)=O |  | male human, plasma | intravenous, 2 mg, single dose, healthy volunteers |  | AUC(0-inf) | 0.293 µg·h/mL |
| Cn1c(=O)oc2ccc(-c3ccc(CC(C#N)NC(=O)C4CNCCCO4)c(F)c3)cc21 (stereo not shown) | item: urinary occult blood positive | human | 60 mg single dose, fasted |  | subjects with TEAE | 16.7% |
| Cc1cccc(O[C@H]2CCC[C@@H](C(C)CNCc3ccncc3)C2)c1 (relative stereo) |  | C57BL/6 mouse female, brain | oral, 25 mg/kg |  | Clast | 57 ng/mL |

Some of these lines once more:
| Compound | assay | system | conditions | scale | measurement | value |
| --- | --- | --- | --- | --- | --- | --- |
| CCCCN1C(=O)c2cccc3c(NCCCCCCCCCCN4CCOCC4)ccc(c23)C1=O |  | aqueous medium | pH 6 |  | average fluorescence lifetime | 4.2 ns |
| CC(O)c1ccc(C2CC3(C)C(CCC3(O)C(F)(F)C(F)(F)F)C3CCC4=CC(=O)CCC4=C23)cc1 (stereo not shown) |  | rat liver microsomes | 100 % absorption assumed |  | maximal oral bioavailability | 57% |
| O=C(CCc1ccc(CNC(C(=O)OC2CCCC2)C2CCCCC2)cn1)NO (stereo not shown) |  | human, plasma | oral, 5 mg, single dose, patients |  | Cmax | 16.5 ng/mL |
| CC(=O)N[C@H](CSSC[C@H](N)C(=O)O)C(=O)N[C@H](C)C(=O)N[C@H](CCCNC(=N)N)C(=O)N[C@H](CCCNC(=N)N)C(=O)N[C@H](CCCNC(=N)N)C(=O)N[C@H](C)C(=O)N[C@H](CCCNC(=N)N)C(N)=O |  | male human, plasma | intravenous, 2 mg, single dose, healthy volunteers |  | AUC(0-inf) | 0.293 µg·h/mL |
